Experimental data from different studies.
Numbered parts are unrelated; each lists some results of a single study. “And” joins repeats or separate records; there may be more than shown.

Study 1
Host: female CD-1 mouse
Matrix: plasma
Route: oral
Dose: 20 mg/kg
For `Cc1ccc(O)c(C)c1-c1cnc2[nH]c(-c3cnc(N4CCC(CN5CCN(c6cc7c(cc6F)n(C6CCC(=O)NC6=O)c(=O)n7C)CC5)CC4)nc3)cc2c1C#N` (stereo not drawn), the Cmax was 702 ng/mL.
The Cmax of `Cc1ccc(O)c(C)c1-c1cnc2[nH]c(-c3cnc(N4CCC5(CC4)CC(N4CCN(c6ccc(NC7CCC(=O)NC7=O)cc6F)CC4)CO5)nc3)cc2c1C#N` (stereo not drawn) is reported as 948 ng/mL.
The Cmax of `Cc1ccc(O)c(C)c1-c1cnc2[nH]c(-c3cnc(N4CCC(CN5CCN(c6cc7c(cc6F)c(N6CCC(=O)NC6=O)nn7C)CC5)CC4)nc3)cc2c1C#N` is reported as 1580 ng/mL.
`Cc1ccc(O)c(C)c1-c1cnc2[nH]c(-c3cnc(N4CCC(CN5CCN(c6ccc7c(c6F)CN(C6CCC(=O)NC6=O)C7=O)CC5)CC4)nc3)cc2c1C#N` (stereo not drawn) gave a Cmax of 1000 ng/mL.
The Cmax of `Cc1ccc(O)c(C)c1-c1cnc2[nH]c(-c3cnc(N4CCC5(CC4)CC(CN4CCN(c6ccc(NC7CCC(=O)NC7=O)cc6F)CC4)C5)nc3)cc2c1C#N` (stereo not drawn) is reported as 472 ng/mL.

Study 2
Structure (SMILES): COCC1CC2C(CCC3C(O)CCC32)c2ccc(O)cc21 (stereo not drawn)
A549; microarray, item: MCM6; 25 µM; baseline: untreated — “log2 fold change”: 0.0734.
SK-OV-3; DNA microarray, item: GINS1; 25 µM; baseline: untreated cells — “log2 fold change”: -0.112.
For A549; DNA microarray, item: GINS1; 25 µM; baseline: untreated cells: “log2 fold change” read 0.154.
For SK-OV-3; DNA microarray, item: KIF20A; 100 µM; baseline: untreated cells: “log2 fold change” read -0.104 and -0.0287 and -0.0359 and -0.0728 and -0.0127.
For A549; DNA microarray, item: MCM7; 25 µM; baseline: untreated cells: “log2 fold change” read 0.192.
It gave 8.46 for “log2 fold change” (SK-OV-3; DNA microarray, item: C6; 100 µM; baseline: untreated cells).
For SK-OV-3; DNA microarray, item: ADAMTS8; 100 µM; baseline: untreated: “log2 fold change” read 5.71.
For SK-OV-3; DNA microarray, item: GINS1; 100 µM; baseline: untreated cells: “log2 fold change” read -0.343.
For PANC-1; DNA microarray, item: ADAMTS14 mRNA; 100 µM; baseline: control: “log2 fold change” read 2.78.
For A549; microarray, item: CCL11; 100 µM; baseline: untreated: “log2 fold change” read 8.07.
SK-OV-3; microarray, item: SPC25; 25 µM; baseline: untreated — “log2 fold change”: -0.104.
For PANC-1; DNA microarray, item: KIF20A; 100 µM; baseline: untreated cells: “log2 fold change” read 0.512 and 0.537 and 0.532 and 0.542.
A549; microarray, item: GZMK; 100 µM; baseline: untreated — “log2 fold change”: 0.
It gave -0.642 for “log2 fold change” (SK-OV-3; DNA microarray, item: ACTA2; 25 µM; baseline: untreated control).
A549; DNA microarray, item: ACTA2; 25 µM; baseline: untreated cells — “log2 fold change”: -0.155.
It gave 0 for “log2 fold change” (SK-OV-3; microarray, item: OLIG2; 100 µM; baseline: untreated).

Study 3
Compound: O=C(O)C1(O)Oc2cc(Cl)ccc2N(Cc2ccccc2)C1=O (stereo not drawn)
For Arabidopsis thaliana; root length; Col-0, seedlings; 3.125 µg/mL: inhibition read 6.05%.
Arabidopsis thaliana; hypocotyl length; Col-0; 25.0 µg/mL, 7 days, seed germination, dark — inhibition: 21.1%.
Amaranthus retroflexus; fresh weight; 150 g ai/ha, post-emergence treatment — inhibition: 54.6% and 59.7% and 59.4%.
For Arabidopsis thaliana; root length; Col-0, seedlings; 25 µg/mL; baseline: water control: inhibition read 17.2%.
Arabidopsis thaliana; hypocotyl length; Col-0, seedlings; 12.5 µg/mL — inhibition: 3.63%.
The inhibition was 6.36% (Arabidopsis thaliana; root length; Col-0, seedlings; 6.25 µg/mL; baseline: water control).
Arabidopsis thaliana; hypocotyl length; Col-0, seedlings; 100 µg/mL — inhibition: 41.3%.
The inhibition was 8.9% and 8.2% and 9% (Glycine max; fresh weight; soil surface spray, 150 g ai/ha, 21 days, pre-emergence crop safety).
The inhibition was 41.3% (Arabidopsis thaliana; hypocotyl length; Col-0; 100 µg/mL, 7 days, seed germination, dark).
Arabidopsis thaliana; root length; Col-0, seedlings; 50 µg/mL — inhibition: 52.4%.
It gave 3.6% for inhibition (Arabidopsis thaliana; hypocotyl length; Col-0; 12.5 µg/mL, 7 days, seed germination, dark).
The inhibition was 17.2% (Arabidopsis thaliana; root length; Col-0, seedlings; 25 µg/mL).
Arabidopsis thaliana; root length; Col-0, seedlings; 50 µg/mL; baseline: water control — inhibition: 52.4%.
It gave 83.6% and 80.7% and 80.2% for inhibition (Avena fatua; fresh weight; 150 g ai/ha, pre-emergence treatment).

Study 4
Compound: CCN1/C(=C/C=C2\CCCC(/C=C/C3=[N+](CC)c4ccccc4C3(C)C)=C2NCCCCCCCCN2CCC(Nc3nc4ccccc4n3Cc3ccc(F)cc3)CC2)C(C)(C)c2ccccc21
Cell line: U-87 MG
Tested at: concentration not given
Baseline: DMSO
item: FEM1C mRNA — “log2 fold change”: 0.949.
item: TUBB6 mRNA — “log2 fold change”: -1.43.
It gave 1.06 for “log2 fold change” (item: TDP2 mRNA).
item: SLCO5A1 mRNA — “log2 fold change”: 3.4.
The “log2 fold change” was -1.47 (item: CLCF1 mRNA).
item: TAPBP mRNA — “log2 fold change”: -0.884.
item: ZMYND10 mRNA — “log2 fold change”: -2.01.
For item: PIANP mRNA: “log2 fold change” read -0.918.
item: CCNB2 mRNA — “log2 fold change”: -1.64.
The “log2 fold change” was 1.05 (item: SAMD8 mRNA).
item: H2AX mRNA — “log2 fold change”: -1.91.
For item: IRX3 mRNA: “log2 fold change” read -1.46.
It gave -2.26 for “log2 fold change” (item: POLE2 mRNA).
The “log2 fold change” was -0.958 (item: TFDP1 mRNA).
The “log2 fold change” was 1.05 (item: RALGAPA1 mRNA).
item: MTRNR2L8 mRNA — “log2 fold change”: 1.25.

For quick reference, copied from above (study 1):
The Cmax of `Cc1ccc(O)c(C)c1-c1cnc2[nH]c(-c3cnc(N4CCC5(CC4)CC(N4CCN(c6ccc(NC7CCC(=O)NC7=O)cc6F)CC4)CO5)nc3)cc2c1C#N` (stereo not drawn) is reported as 948 ng/mL.
The Cmax of `Cc1ccc(O)c(C)c1-c1cnc2[nH]c(-c3cnc(N4CCC(CN5CCN(c6cc7c(cc6F)c(N6CCC(=O)NC6=O)nn7C)CC5)CC4)nc3)cc2c1C#N` is reported as 1580 ng/mL.
`Cc1ccc(O)c(C)c1-c1cnc2[nH]c(-c3cnc(N4CCC(CN5CCN(c6ccc7c(c6F)CN(C6CCC(=O)NC6=O)C7=O)CC5)CC4)nc3)cc2c1C#N` (stereo not drawn) gave a Cmax of 1000 ng/mL.
For `Cc1ccc(O)c(C)c1-c1cnc2[nH]c(-c3cnc(N4CCC(CN5CCN(c6cc7c(cc6F)n(C6CCC(=O)NC6=O)c(=O)n7C)CC5)CC4)nc3)cc2c1C#N` (stereo not drawn), the Cmax was 702 ng/mL.
